# Measurements collected from several papers.
# Lines come from different studies, so protocols differ. ± gives the spread as reported.
# OPRD1: Delta-type opioid receptor (OPRD1, Homo sapiens, UniProt P41143)
# Chain of UniProt P41143 (whole entry, looked up): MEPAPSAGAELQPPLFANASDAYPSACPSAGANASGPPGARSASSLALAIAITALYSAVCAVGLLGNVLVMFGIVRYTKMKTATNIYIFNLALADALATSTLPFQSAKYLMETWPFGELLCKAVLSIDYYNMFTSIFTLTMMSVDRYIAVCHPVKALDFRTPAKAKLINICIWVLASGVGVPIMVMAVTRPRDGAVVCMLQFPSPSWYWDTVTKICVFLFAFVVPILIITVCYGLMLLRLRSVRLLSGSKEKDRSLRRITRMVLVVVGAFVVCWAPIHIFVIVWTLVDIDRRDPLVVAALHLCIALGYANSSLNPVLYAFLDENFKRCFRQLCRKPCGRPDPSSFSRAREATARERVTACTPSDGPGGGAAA
# Chain of UniProt P48546 (whole entry, looked up): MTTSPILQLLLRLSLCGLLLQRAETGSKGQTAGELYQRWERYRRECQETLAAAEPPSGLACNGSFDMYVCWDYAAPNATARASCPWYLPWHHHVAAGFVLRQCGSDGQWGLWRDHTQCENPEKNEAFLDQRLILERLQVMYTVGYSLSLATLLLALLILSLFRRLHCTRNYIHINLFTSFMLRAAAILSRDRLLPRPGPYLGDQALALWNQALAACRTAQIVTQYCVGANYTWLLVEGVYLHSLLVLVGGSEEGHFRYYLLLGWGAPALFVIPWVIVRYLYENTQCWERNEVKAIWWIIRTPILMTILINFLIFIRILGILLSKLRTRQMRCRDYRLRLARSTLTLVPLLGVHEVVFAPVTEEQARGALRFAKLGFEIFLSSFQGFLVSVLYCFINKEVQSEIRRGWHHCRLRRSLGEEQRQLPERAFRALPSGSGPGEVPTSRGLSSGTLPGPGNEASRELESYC
# Chain of UniProt Q16762 (whole entry, looked up): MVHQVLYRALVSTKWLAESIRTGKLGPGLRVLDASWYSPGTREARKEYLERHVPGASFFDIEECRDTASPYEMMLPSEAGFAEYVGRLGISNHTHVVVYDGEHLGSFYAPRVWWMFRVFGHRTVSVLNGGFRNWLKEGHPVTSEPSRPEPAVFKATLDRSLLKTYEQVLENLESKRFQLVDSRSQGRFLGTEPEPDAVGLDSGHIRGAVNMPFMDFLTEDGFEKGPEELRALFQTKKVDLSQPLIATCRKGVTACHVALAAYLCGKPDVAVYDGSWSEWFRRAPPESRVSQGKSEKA
# Chain of UniProt P41145 (whole entry, looked up): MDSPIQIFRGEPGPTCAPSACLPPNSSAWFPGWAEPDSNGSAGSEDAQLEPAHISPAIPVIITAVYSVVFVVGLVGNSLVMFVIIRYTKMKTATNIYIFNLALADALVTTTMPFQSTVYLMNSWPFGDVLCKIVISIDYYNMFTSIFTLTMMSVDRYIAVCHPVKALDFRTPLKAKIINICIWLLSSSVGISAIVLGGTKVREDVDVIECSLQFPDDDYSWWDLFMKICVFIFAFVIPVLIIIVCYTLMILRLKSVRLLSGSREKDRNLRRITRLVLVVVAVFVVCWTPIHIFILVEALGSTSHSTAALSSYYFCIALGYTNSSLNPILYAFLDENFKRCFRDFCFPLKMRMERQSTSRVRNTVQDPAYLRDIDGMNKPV
Compound,tested on,assay,test system,conditions,endpoint,result
CC[C@H](C)[C@H](NC(=O)[C@H](CCCCN)NC(=O)[C@H](CCCCN)NC(=O)[C@H](CC(C)C)NC(=O)[C@H](Cc1c[nH]c2ccccc12)NC(=O)CN)C(=O)NCC(=O)N[C@@H](CCCCN)C(=O)N[C@@H](CCCCN)C(=O)N[C@H](C(=O)N[C@@H](CCC(=O)O)C(=O)N[C@@H](CCCNC(=N)N)C(=O)N[C@H](C(=O)NCC(=O)N[C@@H](CCC(N)=O)C(=O)N[C@@H](Cc1c[nH]cn1)C(=O)N[C@H](C(=O)N[C@@H](CCCNC(=N)N)C(=O)N[C@@H](CC(=O)O)C(=O)N[C@@H](C)C(=O)N[C@H](C(=O)N[C@H](C(=O)N[C@@H](CCC(N)=O)C(=O)N[C@H](C(=O)N[C@H](C(=O)NCC(=O)N[C@H](C(=O)N[C@@H](C)C(=O)N[C@@H](CCC(N)=O)C(=O)N[C@@H](CCC(N)=O)C(=O)N[C@@H](C)C(=O)N[C@@H](C)C(=O)N[C@@H](CC(N)=O)C(=O)N[C@H](C(=O)N[C@@H](C)C(=O)N[C@@H](C)C(=O)N[C@H](C(=O)N[C@@H](CC(C)C)C(=O)N[C@@H](CCCCN)C(N)=O)[C@@H](C)O)C(C)C)C(C)C)[C@@H](C)CC)[C@@H](C)O)[C@@H](C)CC)[C@@H](C)O)[C@@H](C)O)C(C)C)[C@@H](C)CC,Staphylococcus aureus,broth microdilution,"ATCC 25923, CAMHB",,MIC,> 1020 µg/mL
CC[C@H](C)[C@@H]1NC(=O)[C@@H](C)NC(=O)[C@H](CCC(=O)N[C@@H](CCCCN)C(N)=O)NC(=O)[C@@H](C)NC(=O)[C@@H](C)NC(=O)[C@H](Cc2c[nH]c3ccccc23)NC(=O)[C@H](Cc2ccc(O)cc2)NC(=O)[C@H](CCCNC(=N)N)NC(=O)[C@H](Cc2ccc(F)cc2)NC1=O,"Gag polyprotein, p6 deleted (gag, Human immunodeficiency virus type 1 group M subtype B, UniProt P03347)",fluorescence anisotropy,HIV-1,added: 100 nM fluorescein-labelled peptide,Kd,0.8 to 0.9 µM
CCCCCCCCCCCCCCCC(=O)N[C@@H](CCC(=O)NCCOCCOCCC(=O)NCCOCCOCCC(=O)NCCCC[C@H](NC(=O)[C@H](CC(=O)O)NC(=O)[C@H](CC(C)C)NC(=O)[C@H](Cc1ccc(O)cc1)NC(=O)[C@H](CCCCN)NC(=O)[C@H](CO)NC(=O)[C@H](Cc1ccc(O)cc1)NC(=O)[C@H](CC(=O)O)NC(=O)[C@H](CO)NC(=O)[C@@H](NC(=O)[C@H](Cc1ccccc1)NC(=O)[C@@H](NC(=O)CNC(=O)[C@H](CCC(N)=O)NC(=O)[C@@H](CO)NC(=O)[C@@H](N)Cc1c[nH]cn1)[C@@H](C)O)[C@@H](C)O)C(=O)N[C@@H](CCCNC(=N)N)C(=O)N[C@@H](CCCNC(=N)N)C(=O)N[C@@H](C)C(=O)N[C@@H](CCC(N)=O)C(=O)N[C@@H](CC(=O)O)C(=O)N[C@@H](Cc1ccccc1)C(=O)N[C@H](C(=O)N[C@@H](CCC(N)=O)C(=O)N[C@@H](Cc1c[nH]c2ccccc12)C(=O)N[C@@H](CC(C)C)C(=O)N[C@@H](CC(C)C)C(=O)N[C@@H](CC(N)=O)C(=O)N[C@H](C(=O)NCC(=O)NCC(=O)N1CCC[C@H]1C(=O)N[C@@H](CO)C(=O)N[C@@H](CO)C(=O)NCC(=O)N[C@@H](C)C(=O)N1CCC[C@H]1C(=O)N1CCC[C@H]1C(=O)N1CCC[C@H]1C(=O)N[C@@H](CO)C(N)=O)[C@@H](C)O)C(C)C)C(=O)O,,,"rhesus monkey, female","subcutaneous, 60 µg/kg once daily, 28 days",urea,6.54 ± 1.17 mmol/L
CC(C)C[C@H](NC(=O)[C@H](CO)NC(=O)[C@H](CCCCN)NC(=O)[C@H](CC(C)C)NC(=O)CNC(=O)[C@H](CCCCN)NC(=O)[C@H](CCC(=O)O)NC(=O)[C@H](C)NC(=O)[C@H](CC(C)C)NC(=O)[C@H](CC(N)=O)NC(=O)[C@@H]1CCCN1C(=O)[C@H](CC(C)C)NC(=O)[C@H](Cc1ccccc1)NC(=O)CNC(=O)[C@H](NC(=O)[C@@H](N)Cc1ccc(O)cc1)[C@H](C)O)C(N)=O,OPRD1,"ligand displacement, radioligand",,"pH 7.5, cell membranes",Ki,0.015 µM
CC[C@H](C)[C@H](NC(=O)[C@H](C)NC(=O)[C@H](Cc1c[nH]cn1)NC(=O)[C@@H](NC(=O)[C@H](CC(C)C)NC(=O)[C@H](CCCNC(=N)N)NC(=O)[C@H](CCC(N)=O)NC(=O)[C@H](C)NC(=O)[C@H](C)NC(=O)[C@H](C)NC(=O)[C@@H](NC(=O)[C@H](C)NC(=O)[C@H](CCC(N)=O)NC(=O)[C@H](C)NC(=O)CNC(=O)[C@H](CCC(N)=O)NC(=O)[C@H](CC(C)C)NC(=O)[C@H](C)NC(=O)[C@H](CCCNC(=N)N)NC(=O)[C@H](CCC(N)=O)NC(=O)CNC(=O)[C@H](Cc1c[nH]c2ccccc12)NC(=O)[C@H](Cc1c[nH]cn1)NC(=O)[C@H](C)NC(=O)[C@H](CO)NC(=O)[C@H](C)NC(C)=O)C(C)C)C(C)C)C(=O)N[C@@H](C)C(=O)N[C@@H](CC(C)C)C(=O)N[C@@H](CCSC)C(=O)N[C@H](C(=O)N[C@@H](CCC(N)=O)C(=O)N[C@@H](Cc1ccccc1)C(=O)NCC(=O)N[C@@H](CCCNC(=N)N)C(N)=O)[C@@H](C)O,,"membrane partitioning, far-UV CD",POPC:POPG 8:2 SUV,,Kd,75 ± 11 µM
CCCCCCCCCCCCCCCC(=O)N[C@@H](CCC(=O)NCCCC[C@H](NC(=O)[C@H](CC(=O)O)NC(=O)[C@H](CO)NC(=O)[C@@H](NC(=O)[C@H](Cc1ccccc1)NC(=O)[C@@H](NC(=O)CNC(=O)[C@H](CCC(N)=O)NC(=O)[C@H](C)NC(=O)[C@@H](Cc1ccc(O)cc1)NC(C)=O)[C@@H](C)O)[C@@H](C)O)C(=O)N[C@@H](CO)C(=O)N[C@@H](CCCCN)C(=O)N[C@@H](Cc1ccc(O)cc1)C(=O)N[C@@H](CC(C)C)C(=O)N[C@@H](CC(=O)O)C(=O)N[C@@H](CCC(=O)O)C(=O)N[C@@H](CCCNC(=N)N)C(=O)N[C@@H](C)C(=O)N[C@@H](C)C(=O)N[C@@H](CCC(N)=O)C(=O)N[C@@H](CC(=O)O)C(=O)N[C@@H](Cc1ccccc1)C(=O)N[C@H](C(=O)N[C@@H](CCC(N)=O)C(=O)N[C@@H](Cc1c[nH]c2ccccc12)C(=O)N[C@@H](CC(C)C)C(=O)N[C@@H](CC(C)C)C(=O)N[C@@H](CCC(=O)O)C(=O)NCC(=O)NCC(=O)N1CCC[C@H]1C(=O)N[C@@H](CO)C(=O)N[C@@H](CO)C(=O)NCC(=O)N[C@@H](C)C(=O)N1CCC[C@H]1C(=O)N1CCC[C@H]1C(=O)N1CCC[C@H]1C(=O)N[C@@H](CO)C(N)=O)C(C)C)C(=O)O,,multiple ascending dose,human,"25 to 150 µg once daily, geometric mean range",half-life at steady state,17.5 to 25.6 h
CC[C@H](C)[C@H](NC(=O)[C@H](CCCCN)NC(=O)[C@H](Cc1c[nH]c2ccccc12)NC(=O)[C@H](CC(C)C)NC(=O)[C@H](CC(C)C)NC(=O)[C@H](CC(=O)O)NC(=O)[C@@H](NC(=O)[C@H](CCCNC(=N)N)NC(=O)[C@H](CCC(=O)O)NC(=O)[C@H](CCCNC(=N)N)NC(=O)[C@H](CC(=O)O)NC(=O)[C@H](CC(C)C)NC(C)=O)[C@@H](C)CC)C(=O)N[C@@H](C)C(=O)N[C@@H](CCCNC(=N)N)C(=O)N[C@@H](C)C(=O)NCC(=O)N[C@@H](C)C(=O)N[C@@H](CCCNC(=N)N)C(=O)N[C@@H](CO)C(=O)N[C@@H](C)C(=O)N[C@H](C(=O)NCC(N)=O)C(C)C,,"membrane partitioning, tryptophan fluorescence",POPC:POPG:cholesterol SUV,"pH 7.5, 25 °C, first transition",Kd,2100 ± 600 µM
CC(C)C[C@H](NC(=O)[C@H](CO[C@@H]1O[C@H](CO)[C@@H](O)[C@H](O)[C@H]1O)NC(=O)[C@H](CCCCN)NC(=O)[C@H](CC(C)C)NC(=O)CNC(=O)[C@H](CCCCN)NC(=O)[C@H](CCC(=O)O)NC(=O)CNC(=O)[C@H](CC(C)C)NC(=O)[C@H](CC(N)=O)NC(=O)[C@@H]1CCCN1C(=O)[C@H](CC(C)C)NC(=O)[C@H](Cc1ccccc1)NC(=O)CNC(=O)[C@H](NC(=O)[C@@H](N)Cc1ccc(O)cc1)[C@H](C)O)C(N)=O,"Kappa-type opioid receptor (OPRK1, Homo sapiens, UniProt P41145)","ligand displacement, radioligand",,"pH 7.5, cell membranes",Ki,0.0044 µM
Cc1cc(O)cc(C)c1C[C@H](N)C(=O)NCC(=O)NCC(=O)N[C@@H](Cc1ccccc1)C(=O)N[C@H](C(=O)NCC(=O)N[C@@H](C)C(=O)N[C@@H](CCCNC(=N)N)C(=O)N[C@@H](CCCCN)C(=O)N[C@@H](CO)C(=O)N[C@@H](C)C(=O)N[C@@H](CCCNC(=N)N)C(=O)N[C@@H](CCCCN)C(N)=O)[C@@H](C)O,OPRD1,"ligand displacement, radioligand",,cell membranes,Ki,0.000102 µM
CC(C)C[C@H](NC(=O)[C@H](CO[C@@H]1O[C@H](CO)[C@@H](O[C@@H]2O[C@H](CO)[C@H](O)[C@H](O)[C@H]2O)[C@H](O)[C@H]1O)NC(=O)[C@H](CCCCN)NC(=O)[C@H](CC(C)C)NC(=O)[C@H](C)NC(=O)[C@H](CCCCN)NC(=O)[C@H](CCC(=O)O)NC(=O)[C@H](C)NC(=O)[C@H](CC(C)C)NC(=O)[C@H](CC(N)=O)NC(=O)[C@@H]1CCCN1C(=O)[C@H](CC(C)C)NC(=O)[C@H](Cc1ccccc1)NC(=O)CNC(=O)[C@H](NC(=O)[C@@H](N)Cc1ccc(O)cc1)[C@H](C)O)C(N)=O,OPRD1,"ligand displacement, radioligand",,"pH 7.5, cell membranes",Ki,0.012 µM
CC[C@H](C)[C@H](NC(=O)[C@H](CCCN)NC(=O)[C@H](CC(=O)O)NC(=O)[C@H](CC(C)C)NC(=O)C(C)(CC(C)C)NC(=O)[C@@H](NC(=O)[C@H](CO)NC(=O)[C@H](Cc1ccc(O)cc1)NC(=O)[C@H](CC(=O)O)NC(=O)[C@H](CO)NC(=O)[C@@H](NC(=O)[C@H](Cc1ccccc1)NC(=O)[C@@H](NC(=O)CNC(=O)[C@H](CCC(=O)O)NC(=O)C(C)(C)NC(=O)[C@@H](N)Cc1ccc(O)cc1)[C@@H](C)O)[C@@H](C)CC)[C@@H](C)CC)C(=O)N[C@@H](Cc1c[nH]cn1)C(=O)N[C@@H](CCC(N)=O)C(=O)NC(C)(C)C(=O)N[C@@H](CC(=O)O)C(=O)N[C@@H](Cc1ccccc1)C(=O)N[C@H](C(=O)N[C@@H](CCC(=O)O)C(=O)N[C@@H](Cc1ccc(O)cc1)C(=O)N[C@@H](CCCCNC(=O)COCCOCCNC(=O)COCCOCCNC(=O)CC[C@H](NC(=O)CCCCCCCCCCCCCCCCCCC(=O)O)C(=O)O)C(=O)N[C@@H](CC(C)C)C(=O)N[C@@H](CCC(=O)O)C(=O)NCC(=O)NCC(=O)N1CCC[C@H]1C(=O)N[C@@H](CO)C(=O)N[C@@H](CO)C(=O)NCC(=O)N[C@@H](C)C(=O)N1CCC[C@H]1C(=O)N1CCC[C@H]1C(=O)N1CCC[C@H]1C(=O)N[C@@H](CO)C(N)=O)C(C)C (stereo partly shown),"Gastric inhibitory polypeptide receptor (GIPR, Homo sapiens, UniProt P48546)","cAMP, agonist",,,EC50,0.012 nM
O=C1SCCC1NC(C(=O)NCc1ccccc1)C1CC1 (stereo not shown),"Thiosulfate sulfurtransferase (TST, Homo sapiens, UniProt Q16762)","enzyme activity, activator, cyanide to thiocyanate conversion",,,EC50,17000 ± 9500 nM
Cc1cc(/C=C/C#N)cc(C)c1Nc1nc(Nc2ccc(C#N)cc2)ncc1N,HIV-1,"viral replication, single-round infection",RT mutant K101E,,EC50,2.3 ± 1.2 nM
